Assay results from different studies.
Values joined by “and” are separate records of one study, mostly repeats; a detail may differ. ± marks the error that the study gave.
CXCR4: C-X-C chemokine receptor type 4 (CXCR4, Homo sapiens, UniProt P61073)
UniProt P61073, sequence (whole entry, looked up): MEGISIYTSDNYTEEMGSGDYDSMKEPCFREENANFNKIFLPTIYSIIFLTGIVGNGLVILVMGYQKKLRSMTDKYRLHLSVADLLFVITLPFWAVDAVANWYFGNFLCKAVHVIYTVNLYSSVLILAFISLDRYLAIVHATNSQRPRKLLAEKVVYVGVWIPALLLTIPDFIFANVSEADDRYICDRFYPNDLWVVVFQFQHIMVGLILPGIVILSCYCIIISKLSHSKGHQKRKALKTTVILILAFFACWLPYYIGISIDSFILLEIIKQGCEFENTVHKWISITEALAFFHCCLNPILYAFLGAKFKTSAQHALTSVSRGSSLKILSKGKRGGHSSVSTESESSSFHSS
PARP1: Poly [ADP-ribose] polymerase 1 (PARP1, Homo sapiens, UniProt P09874)
UniProt P09874, sequence (whole entry, looked up): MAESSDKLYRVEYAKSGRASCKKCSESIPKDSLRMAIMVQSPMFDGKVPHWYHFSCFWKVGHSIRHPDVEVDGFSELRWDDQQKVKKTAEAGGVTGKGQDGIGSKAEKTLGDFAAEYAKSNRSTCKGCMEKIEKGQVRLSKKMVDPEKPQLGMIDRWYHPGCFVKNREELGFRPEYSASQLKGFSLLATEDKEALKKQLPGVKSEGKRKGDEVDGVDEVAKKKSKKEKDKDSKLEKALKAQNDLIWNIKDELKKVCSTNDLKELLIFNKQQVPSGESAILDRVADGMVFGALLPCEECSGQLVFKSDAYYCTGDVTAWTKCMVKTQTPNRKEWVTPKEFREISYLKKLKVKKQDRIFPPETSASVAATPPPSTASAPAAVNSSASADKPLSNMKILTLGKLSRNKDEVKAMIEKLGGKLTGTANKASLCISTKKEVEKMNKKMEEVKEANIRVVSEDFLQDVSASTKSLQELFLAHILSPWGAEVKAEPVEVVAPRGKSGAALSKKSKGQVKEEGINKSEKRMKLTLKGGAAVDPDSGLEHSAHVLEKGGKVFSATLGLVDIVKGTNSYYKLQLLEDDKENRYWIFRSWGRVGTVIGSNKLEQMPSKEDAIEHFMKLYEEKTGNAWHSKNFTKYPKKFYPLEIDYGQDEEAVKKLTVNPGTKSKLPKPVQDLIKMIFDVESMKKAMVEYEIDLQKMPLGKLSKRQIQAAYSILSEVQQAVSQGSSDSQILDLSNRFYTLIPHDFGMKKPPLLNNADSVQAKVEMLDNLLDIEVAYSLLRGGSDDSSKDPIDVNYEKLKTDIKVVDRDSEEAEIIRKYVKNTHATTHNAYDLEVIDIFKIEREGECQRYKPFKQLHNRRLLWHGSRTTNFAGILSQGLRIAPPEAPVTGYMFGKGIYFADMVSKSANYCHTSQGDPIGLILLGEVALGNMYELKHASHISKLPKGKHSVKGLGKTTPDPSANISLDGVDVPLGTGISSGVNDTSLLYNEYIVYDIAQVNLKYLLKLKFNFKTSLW
ABCC1: Multidrug resistance-associated protein 1 (ABCC1, Homo sapiens, UniProt P33527)
UniProt P33527, sequence (whole entry, looked up): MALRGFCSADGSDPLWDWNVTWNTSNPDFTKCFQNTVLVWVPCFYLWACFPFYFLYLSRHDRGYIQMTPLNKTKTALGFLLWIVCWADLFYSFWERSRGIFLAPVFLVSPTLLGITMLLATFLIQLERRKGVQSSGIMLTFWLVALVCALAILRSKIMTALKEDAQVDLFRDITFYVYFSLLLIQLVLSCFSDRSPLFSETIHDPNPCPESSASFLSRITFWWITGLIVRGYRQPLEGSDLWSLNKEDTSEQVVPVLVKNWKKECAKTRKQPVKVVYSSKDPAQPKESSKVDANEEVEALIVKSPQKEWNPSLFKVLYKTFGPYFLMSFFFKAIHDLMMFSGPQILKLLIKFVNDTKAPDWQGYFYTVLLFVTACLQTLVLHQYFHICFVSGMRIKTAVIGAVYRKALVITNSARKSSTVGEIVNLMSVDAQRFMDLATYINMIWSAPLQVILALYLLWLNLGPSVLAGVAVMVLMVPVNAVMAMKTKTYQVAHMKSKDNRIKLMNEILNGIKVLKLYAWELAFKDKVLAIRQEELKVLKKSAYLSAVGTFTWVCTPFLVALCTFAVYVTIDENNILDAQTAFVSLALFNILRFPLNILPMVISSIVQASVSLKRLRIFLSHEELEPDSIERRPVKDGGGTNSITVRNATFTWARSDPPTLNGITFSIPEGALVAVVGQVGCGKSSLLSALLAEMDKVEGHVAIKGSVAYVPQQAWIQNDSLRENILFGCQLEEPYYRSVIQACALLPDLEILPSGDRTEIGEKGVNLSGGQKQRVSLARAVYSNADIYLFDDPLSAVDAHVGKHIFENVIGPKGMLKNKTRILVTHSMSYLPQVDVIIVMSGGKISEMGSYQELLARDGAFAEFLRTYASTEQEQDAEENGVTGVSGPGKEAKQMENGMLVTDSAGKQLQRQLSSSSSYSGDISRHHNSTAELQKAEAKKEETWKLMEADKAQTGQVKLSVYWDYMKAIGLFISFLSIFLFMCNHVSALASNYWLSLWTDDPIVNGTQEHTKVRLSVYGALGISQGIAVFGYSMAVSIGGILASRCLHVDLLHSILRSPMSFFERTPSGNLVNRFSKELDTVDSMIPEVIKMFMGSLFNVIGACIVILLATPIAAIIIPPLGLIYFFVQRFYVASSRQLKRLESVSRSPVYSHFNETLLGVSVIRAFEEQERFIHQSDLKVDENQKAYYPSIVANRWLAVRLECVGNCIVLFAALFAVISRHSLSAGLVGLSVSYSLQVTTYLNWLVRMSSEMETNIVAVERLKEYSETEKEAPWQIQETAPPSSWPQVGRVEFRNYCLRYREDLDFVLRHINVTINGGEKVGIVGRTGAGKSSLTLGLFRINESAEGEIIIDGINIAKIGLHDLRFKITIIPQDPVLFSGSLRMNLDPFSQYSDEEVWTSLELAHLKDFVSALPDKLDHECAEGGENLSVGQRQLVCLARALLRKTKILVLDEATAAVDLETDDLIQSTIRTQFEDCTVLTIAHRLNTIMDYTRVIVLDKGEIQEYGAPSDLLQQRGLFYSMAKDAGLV
FAAH: Fatty-acid amide hydrolase 1 (FAAH, Homo sapiens, UniProt O00519)
UniProt O00519, sequence (whole entry, looked up): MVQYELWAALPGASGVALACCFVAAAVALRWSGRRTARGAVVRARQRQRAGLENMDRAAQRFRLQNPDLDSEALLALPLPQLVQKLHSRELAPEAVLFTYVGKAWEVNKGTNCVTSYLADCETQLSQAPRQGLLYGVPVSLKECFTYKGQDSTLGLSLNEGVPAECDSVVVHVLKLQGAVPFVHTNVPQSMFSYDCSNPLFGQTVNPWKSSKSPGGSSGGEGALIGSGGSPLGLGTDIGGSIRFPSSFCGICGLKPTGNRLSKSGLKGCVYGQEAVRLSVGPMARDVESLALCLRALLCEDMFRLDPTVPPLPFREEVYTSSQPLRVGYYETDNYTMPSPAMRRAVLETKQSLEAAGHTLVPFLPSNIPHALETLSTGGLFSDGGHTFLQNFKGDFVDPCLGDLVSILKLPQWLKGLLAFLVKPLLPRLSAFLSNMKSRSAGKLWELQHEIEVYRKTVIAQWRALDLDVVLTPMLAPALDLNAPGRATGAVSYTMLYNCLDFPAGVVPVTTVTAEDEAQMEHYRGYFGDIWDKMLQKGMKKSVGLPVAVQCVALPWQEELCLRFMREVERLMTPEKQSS
UniProt P49841, sequence (whole entry, looked up): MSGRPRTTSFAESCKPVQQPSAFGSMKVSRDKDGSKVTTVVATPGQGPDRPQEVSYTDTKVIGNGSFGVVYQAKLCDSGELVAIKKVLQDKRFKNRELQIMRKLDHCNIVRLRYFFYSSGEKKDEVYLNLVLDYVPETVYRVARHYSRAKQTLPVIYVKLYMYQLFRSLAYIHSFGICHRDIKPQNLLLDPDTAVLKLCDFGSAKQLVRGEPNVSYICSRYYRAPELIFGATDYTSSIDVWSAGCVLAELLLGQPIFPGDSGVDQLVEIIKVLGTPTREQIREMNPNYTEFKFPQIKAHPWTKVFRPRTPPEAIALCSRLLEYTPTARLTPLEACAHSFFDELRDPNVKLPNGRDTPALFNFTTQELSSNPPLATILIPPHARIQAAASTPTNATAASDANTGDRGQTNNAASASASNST
UniProt Q6IQ20, sequence (whole entry, looked up): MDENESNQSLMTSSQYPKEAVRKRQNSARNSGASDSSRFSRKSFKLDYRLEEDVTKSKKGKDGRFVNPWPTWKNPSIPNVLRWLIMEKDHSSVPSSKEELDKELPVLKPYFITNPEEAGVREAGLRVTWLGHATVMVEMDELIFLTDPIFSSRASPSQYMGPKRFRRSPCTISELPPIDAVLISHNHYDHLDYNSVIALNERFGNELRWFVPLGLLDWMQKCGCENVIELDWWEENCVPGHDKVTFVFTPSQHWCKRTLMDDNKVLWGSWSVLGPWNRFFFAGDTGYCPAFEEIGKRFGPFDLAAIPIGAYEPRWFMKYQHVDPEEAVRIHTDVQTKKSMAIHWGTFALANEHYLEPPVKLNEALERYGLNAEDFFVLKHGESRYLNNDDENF
UniProt Q16881, sequence (whole entry, looked up): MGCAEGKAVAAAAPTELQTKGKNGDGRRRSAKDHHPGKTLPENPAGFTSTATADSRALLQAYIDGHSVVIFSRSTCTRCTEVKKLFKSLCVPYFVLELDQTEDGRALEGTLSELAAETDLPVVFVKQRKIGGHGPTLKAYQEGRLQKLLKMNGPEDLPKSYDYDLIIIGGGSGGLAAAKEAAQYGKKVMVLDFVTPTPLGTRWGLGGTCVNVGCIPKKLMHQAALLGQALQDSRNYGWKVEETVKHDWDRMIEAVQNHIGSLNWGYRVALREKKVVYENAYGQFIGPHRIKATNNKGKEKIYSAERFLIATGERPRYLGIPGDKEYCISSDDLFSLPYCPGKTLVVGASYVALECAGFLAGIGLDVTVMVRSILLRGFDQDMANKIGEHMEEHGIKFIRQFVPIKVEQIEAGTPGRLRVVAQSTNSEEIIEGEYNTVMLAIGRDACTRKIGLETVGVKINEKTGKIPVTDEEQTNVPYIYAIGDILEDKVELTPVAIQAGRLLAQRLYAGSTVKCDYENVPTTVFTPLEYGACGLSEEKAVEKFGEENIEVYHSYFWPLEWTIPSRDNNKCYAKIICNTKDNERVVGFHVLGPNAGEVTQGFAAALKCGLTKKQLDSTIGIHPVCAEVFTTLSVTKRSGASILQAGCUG

Substance	target	test	test system	setting	IC50
CN1CCC2(CC1)c1ccccc1N(Cc1ccc(C(=O)NO)s1)C2c1cccc(Cl)c1 (centres unmarked)	Histone deacetylase 8 (Schistosoma mansoni, UniProt A5H660)	enzyme activity, inhibitor, Fluor-de-Lys		with: Fluor-de-Lys substrate 50 µM	0.68 ± 0.08 µM
[Cl-].[Cl-].[Zn+2]	HVCN1 (Homo sapiens, UniProt Q96D96, E119H/H140A)	proton current, inhibitor, whole-cell voltage clamp	human cells	pH 6.5, test pulse 120 mV	0.6 µM
CN1CCN(c2nc(NCc3ccc(CNCCCNC4CCCCC4)cc3)c3ncn(C)c3n2)CC1	CXCR4	ligand displacement, radioligand		cell membranes	0.0595 µM
CS(=O)(=O)OC[C@@H]1COc2cccc(C(N)=O)c2O1	PARP1				0.69 ± 0.27 µM
CN1CCN(C2=Nc3ccccc3Oc3ccc(Cl)cc32)CC1	ABCC1	efflux, inhibitor	SupT1-Vin overexpressing ABCC1	with: BODIPY FL verapamil 100 nM	10.1 ± 4.4 µM
OCl	Helix pomatia β-glucuronidase	enzyme activity		1 h, pH 7.0, 37 °C, with: p-nitrophenyl glucuronide	705 ± 41.4 µM
O=C(Nc1cc(Cl)c(F)c(Cl)c1)c1cc(S(=O)(=O)N2CCOCC2)c(Cl)cc1Cl	LPAR4 (Homo sapiens, UniProt Q99677)	Ca2+ mobilization, antagonist	CHO	with: LPA at EC50	> 100 µM
C=C(C)CCOP(=O)(O)OP(=O)(O)OP(=O)(O)OC[C@H]1O[C@@H](n2cnc3c(N)ncnc32)[C@H](O)[C@@H]1O	NEK7 (Homo sapiens, UniProt Q8TDX7)	enzyme activity, inhibitor, HotSpot kinase		with: ATP 1 µM	2.7 µM
CC1=C(COc2ccc(Cl)cc2)C(=O)c2ccccc2C1=O	TXNRD1 (Homo sapiens, UniProt Q16881)	enzyme activity, inhibitor		pH 7.4, with preincubation	0.7 µM
NS(=O)(=O)c1ccc(NC(=O)CSc2nc3ccccc3c(=O)n2-c2ccccc2)cc1	PARP1	enzyme activity, inhibitor, absorbance			0.352 µM
CN1CCN(CCCN2c3ccccc3Sc3ccc(C(F)(F)F)cc32)CC1	USP2 (Homo sapiens, UniProt O75604)				> 114 µM
CNC(=O)NC	Urea transporter 2 (Rattus norvegicus, UniProt Q62668)	urea transport, inhibitor	MDCK expressing rat UT-A1	20 min	22000 ± 1000 µM
O=C(NC1CCCCC1)Oc1cccc(-c2ccccc2)c1	FAAH	enzyme activity, inhibitor, fluorescence		cell membranes	0.0031 µM
COc1ccc(-c2cc(=O)c3c(OC)c([C@@H]4O[C@H](C(=O)NCC(F)(F)F)[C@@H](O)[C@H](O)[C@H]4O)c(OC)cc3o2)cc1OC	GSK3B (Homo sapiens, UniProt P49841)	enzyme activity, inhibitor, ADP detection			< 20 µM and 19.3 µM
O=c1cc(N2CCOCC2)oc2c(OCc3ccccc3)cccc12	PIK3CB (Homo sapiens, UniProt P42338)	enzyme activity, inhibitor			0.18 µM
O=C(O)C(CCCO)[C@@H]1CCN[C@H]1C(=O)O (relative stereo)	AMPA receptor, rat	binding	cortical synaptosomes	with: [3H]-AMPA	> 100 µM
COc1ccc([C@H](CC(=O)O)N2CCN(CCCc3ccc4c(n3)NCCC4)C2=O)cn1	Integrin alpha-V/beta-5 (Homo sapiens, UniProt P06756+P18084)	vitronectin binding, inhibitor, ELISA			0.0001 ± 0.0001 µM
COC(=O)c1ccccc1NC(=O)C(C)Sc1nnc(Cc2c[nH]c3ccccc23)o1 (centres unmarked)	alpha-glucosidase	enzyme activity		with: p-nitrophenyl glucopyranoside	25.78 ± 0.05 µM
O=C(NCc1ccc(F)cc1)C1CCN(S(=O)(=O)c2cc(Cl)cc(Cl)c2)CC1	Na(+)/citrate cotransporter (Homo sapiens, UniProt Q86YT5)	citrate uptake, inhibitor	HepG2	30 min uptake, no preincubation	3 µM

Substance	target	test	test system	setting	IC50
CCCOC(=O)c1ccc(O)cc1	FAAH	enzyme activity, inhibitor, fluorimetric		60 min preincubation, recombinant enzyme, with: OMP substrate 50 µM	17.1 ± 1.8 µM
Cn1c(=O)c(=O)n(C)c2cc(S(=O)(=O)Nc3ccc(S(N)(=O)=O)cc3)ccc21	DPP4 (Homo sapiens, UniProt P27487)	enzyme activity, inhibitor, fluorescence			0.0006 µM
C#Cc1ccc2cc(-c3ccccc3)c(=O)oc2c1	Cytochrome P450 1A2 (CYP1A2, Homo sapiens, UniProt P05177)	enzyme activity, inhibitor		6 min, pH 7.6	3 µM
CC(=O)Oc1cc(-c2coc3cc(OC(C)=O)c(OC(C)=O)c(OC(C)=O)c3c2=O)cc(OC(C)=O)c1OC(C)=O	Cell division cycle 7-related protein kinase, with DBF4 (CDC7, Homo sapiens, UniProt O00311)	enzyme activity, inhibitor, ADP-Glo luminescence		with: ATP 12.5 µM	1.01 ± 0.04 µM
C#Cc1ccc2c(C(F)(F)F)cc(=O)oc2c1	Cytochrome P450 1A1 (CYP1A1, Homo sapiens, UniProt P04798)	enzyme activity, inhibitor, fluorescence		6 min, pH 7.6	14.3 µM
COc1ccc(-c2csc(NN=Cc3ccccc3)n2)cc1	MAPT (Homo sapiens, UniProt P10636)	ligand displacement, radioligand			> 10 µM
c1nc2c(NCc3cncc(CNCCCNC4CCCCC4)c3)nc(N3CCNCC3)nc2[nH]1	CXCR4	ligand displacement, radioligand		cell membranes	0.0441 µM
O=c1[nH]c2ccccc2n1C1CCN(CCCC(c2ccc(F)cc2)c2ccc(F)cc2)CC1	ABCC1	efflux, inhibitor, flow cytometry	SupT1 cells overexpressing ABCC1	with: DiIC1(5) 100 nM	6 ± 2.1 µM
NC(=O)c1ccc(N)c2c1OCCO2	PARP1				> 5 µM
insulin icodec	IGF1R (Homo sapiens, UniProt P08069)	binding, competitor, scintillation proximity	solubilized receptor	HSA 0%	1.52 µM
O=C(OCc1ccccc1)c1ccc(O)cc1	FAAH	enzyme activity, inhibitor, fluorimetric		5 min preincubation, recombinant enzyme, with: OMP substrate 50 µM	0.14 ± 0.03 µM
N#Cc1cnc2cnc(NCc3cccnc3)cc2c1Nc1ccc(F)c(Cl)c1	PSMB5 (Homo sapiens, UniProt P28074)	enzyme activity		with: Suc-LLVY-AMC substrate, ATP	> 30 µM
O=c1[nH]c(=O)c2cc(S(=O)(=O)Nc3ccc(-c4ccncc4)cc3)ccc2[nH]1	N-acyl-phosphatidylethanolamine-hydrolyzing phospholipase D (Homo sapiens, UniProt Q6IQ20)	enzyme activity, inhibitor			33.7 µM and ~34 µM
Clc1cc(Cl)c(OC2CC2)c(CN[C@H]2CCCN(c3nc4nc(Cl)ccc4[nH]3)C2)c1	Methionyl-tRNA synthetase, putative (Trypanosoma brucei brucei, UniProt Q38C91)	enzyme activity, inhibitor			> 0.3 µM
NC(=O)[C@@H]1CC[C@@H]2CN1C(=O)N2OS(=O)(=O)O	mrcB (Pseudomonas aeruginosa, UniProt G3XD31)	ligand displacement, fluorescence		cell membranes	> 49 µM
COc1cc(/C=C/C(O)=C/C(=O)/C=C/c2ccc(O)cc2)ccc1O	Hsd3b1 (Rattus norvegicus, UniProt P22071)	enzyme activity, inhibitor	rat testicular microsomes	lower bound from 100 µM screen, with: pregnenolone	< 100 µM
Cc1nc2ccc(NC(=O)CCNC(=O)CCCc3ccc(CC(C(=O)O)C(=O)O)cc3)cc2s1	LDHB (Homo sapiens, UniProt P07195)	inhibitor, NADH fluorescence		pyruvate competition, with: 150 µM NADH, 200 µM pyruvate	5 ± 0.8 µM
CC(=O)n1cc[nH]c1=S	mbtI (Mycobacterium tuberculosis, UniProt P9WFX1)	enzyme activity, inhibitor, continuous fluorescence		with: chorismate	> 200 µM
COc1cccc2cc(-c3nnc(SCC(=O)Nc4cccc([N+](=O)[O-])c4)n3-c3ccccc3)oc12	fungal tyrosinase	enzyme activity, inhibitor, dopachrome absorbance		pH 6.8, 37 °C, with: L-tyrosine substrate	0.76 ± 1.71 µM

Excerpt of the above:
Substance	target	test	test system	setting	IC50
COc1cccc2cc(-c3nnc(SCC(=O)Nc4cccc([N+](=O)[O-])c4)n3-c3ccccc3)oc12	fungal tyrosinase	enzyme activity, inhibitor, dopachrome absorbance		pH 6.8, 37 °C, with: L-tyrosine substrate	0.76 ± 1.71 µM
O=c1[nH]c2ccccc2n1C1CCN(CCCC(c2ccc(F)cc2)c2ccc(F)cc2)CC1	ABCC1	efflux, inhibitor, flow cytometry	SupT1 cells overexpressing ABCC1	with: DiIC1(5) 100 nM	6 ± 2.1 µM
OCl	Helix pomatia β-glucuronidase	enzyme activity		1 h, pH 7.0, 37 °C, with: p-nitrophenyl glucuronide	705 ± 41.4 µM
NS(=O)(=O)c1ccc(NC(=O)CSc2nc3ccccc3c(=O)n2-c2ccccc2)cc1	PARP1	enzyme activity, inhibitor, absorbance			0.352 µM
COC(=O)c1ccccc1NC(=O)C(C)Sc1nnc(Cc2c[nH]c3ccccc23)o1 (centres unmarked)	alpha-glucosidase	enzyme activity		with: p-nitrophenyl glucopyranoside	25.78 ± 0.05 µM
COc1cc(/C=C/C(O)=C/C(=O)/C=C/c2ccc(O)cc2)ccc1O	Hsd3b1 (Rattus norvegicus, UniProt P22071)	enzyme activity, inhibitor	rat testicular microsomes	lower bound from 100 µM screen, with: pregnenolone	< 100 µM
